Results of several laboratories.
Each numbered part is a random draw from the data of one study; scales do not carry over between parts.
Sequence of UniProt P06213 (whole entry, looked up): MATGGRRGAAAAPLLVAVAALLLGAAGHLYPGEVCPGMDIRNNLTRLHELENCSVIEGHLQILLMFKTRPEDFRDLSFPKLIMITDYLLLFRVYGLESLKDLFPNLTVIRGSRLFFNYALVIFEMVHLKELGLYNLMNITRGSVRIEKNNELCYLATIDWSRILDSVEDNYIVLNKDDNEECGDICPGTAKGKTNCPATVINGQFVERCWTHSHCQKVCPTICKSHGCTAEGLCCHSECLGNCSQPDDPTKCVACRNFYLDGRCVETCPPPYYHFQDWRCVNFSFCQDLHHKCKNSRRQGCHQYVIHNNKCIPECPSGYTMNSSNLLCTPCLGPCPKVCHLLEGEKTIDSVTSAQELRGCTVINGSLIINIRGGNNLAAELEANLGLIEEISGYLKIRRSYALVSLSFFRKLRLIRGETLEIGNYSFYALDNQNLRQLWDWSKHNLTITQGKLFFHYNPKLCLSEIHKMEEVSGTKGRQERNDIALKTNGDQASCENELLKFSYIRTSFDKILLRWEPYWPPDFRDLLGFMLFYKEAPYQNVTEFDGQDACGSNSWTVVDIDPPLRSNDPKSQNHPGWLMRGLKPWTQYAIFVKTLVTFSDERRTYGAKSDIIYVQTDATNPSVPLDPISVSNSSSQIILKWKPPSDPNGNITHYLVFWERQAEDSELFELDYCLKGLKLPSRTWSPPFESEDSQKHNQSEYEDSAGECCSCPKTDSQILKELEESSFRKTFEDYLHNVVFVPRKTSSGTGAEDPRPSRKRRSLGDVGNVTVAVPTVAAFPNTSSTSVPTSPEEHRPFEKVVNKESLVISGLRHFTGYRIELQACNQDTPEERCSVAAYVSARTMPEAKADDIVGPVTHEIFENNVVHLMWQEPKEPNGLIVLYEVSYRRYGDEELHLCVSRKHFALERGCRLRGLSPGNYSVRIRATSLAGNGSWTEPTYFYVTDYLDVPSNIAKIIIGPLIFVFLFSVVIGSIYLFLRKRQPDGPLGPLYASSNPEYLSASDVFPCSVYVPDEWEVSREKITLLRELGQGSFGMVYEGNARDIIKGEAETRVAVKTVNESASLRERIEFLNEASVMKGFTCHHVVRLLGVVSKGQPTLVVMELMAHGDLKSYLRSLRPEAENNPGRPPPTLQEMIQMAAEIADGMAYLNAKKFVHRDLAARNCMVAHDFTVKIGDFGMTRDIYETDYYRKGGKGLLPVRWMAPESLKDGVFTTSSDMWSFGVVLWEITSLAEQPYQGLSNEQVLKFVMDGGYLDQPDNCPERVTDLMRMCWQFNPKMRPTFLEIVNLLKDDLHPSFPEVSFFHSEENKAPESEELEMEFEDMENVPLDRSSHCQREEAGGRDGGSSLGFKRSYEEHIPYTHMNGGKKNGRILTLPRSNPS
Sequence of UniProt O15146 (whole entry, looked up): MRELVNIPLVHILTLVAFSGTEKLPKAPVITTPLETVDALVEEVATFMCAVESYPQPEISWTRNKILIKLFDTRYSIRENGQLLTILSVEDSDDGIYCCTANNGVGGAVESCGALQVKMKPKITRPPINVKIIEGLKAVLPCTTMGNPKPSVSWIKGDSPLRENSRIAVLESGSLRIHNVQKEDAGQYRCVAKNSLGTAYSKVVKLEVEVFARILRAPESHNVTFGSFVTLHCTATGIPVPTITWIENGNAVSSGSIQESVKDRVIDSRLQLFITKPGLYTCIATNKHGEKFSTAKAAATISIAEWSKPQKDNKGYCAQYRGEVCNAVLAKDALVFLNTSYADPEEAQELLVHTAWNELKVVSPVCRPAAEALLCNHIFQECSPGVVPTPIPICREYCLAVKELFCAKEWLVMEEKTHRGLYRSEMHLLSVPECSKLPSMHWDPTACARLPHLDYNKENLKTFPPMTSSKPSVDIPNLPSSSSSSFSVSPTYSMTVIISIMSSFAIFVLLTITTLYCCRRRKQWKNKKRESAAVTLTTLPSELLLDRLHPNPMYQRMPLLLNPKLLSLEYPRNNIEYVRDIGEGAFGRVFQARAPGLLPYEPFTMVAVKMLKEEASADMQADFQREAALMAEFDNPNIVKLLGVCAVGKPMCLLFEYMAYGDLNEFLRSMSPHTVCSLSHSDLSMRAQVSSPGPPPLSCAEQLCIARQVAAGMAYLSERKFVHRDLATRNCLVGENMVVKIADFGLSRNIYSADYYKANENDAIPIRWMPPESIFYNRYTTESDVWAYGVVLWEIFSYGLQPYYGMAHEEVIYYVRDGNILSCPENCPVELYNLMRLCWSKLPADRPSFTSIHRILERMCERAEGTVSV
Sequence of UniProt Q9BQI3 (whole entry, looked up): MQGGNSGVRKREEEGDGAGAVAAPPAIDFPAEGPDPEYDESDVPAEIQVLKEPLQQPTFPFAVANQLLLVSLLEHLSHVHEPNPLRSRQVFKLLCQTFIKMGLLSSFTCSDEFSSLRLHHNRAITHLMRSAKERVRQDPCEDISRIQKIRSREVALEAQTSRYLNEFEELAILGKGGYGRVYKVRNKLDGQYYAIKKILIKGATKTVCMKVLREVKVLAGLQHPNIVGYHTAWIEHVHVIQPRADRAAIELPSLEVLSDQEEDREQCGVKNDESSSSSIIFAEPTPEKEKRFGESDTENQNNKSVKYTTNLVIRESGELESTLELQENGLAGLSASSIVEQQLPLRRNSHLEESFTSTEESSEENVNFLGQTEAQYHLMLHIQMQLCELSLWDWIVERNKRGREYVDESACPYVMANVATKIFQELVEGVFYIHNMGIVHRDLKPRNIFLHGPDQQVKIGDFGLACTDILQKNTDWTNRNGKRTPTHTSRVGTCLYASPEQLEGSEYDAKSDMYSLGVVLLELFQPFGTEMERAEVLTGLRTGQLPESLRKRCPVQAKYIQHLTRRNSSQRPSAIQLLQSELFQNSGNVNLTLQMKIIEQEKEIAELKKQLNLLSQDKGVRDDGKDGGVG
Sequence of UniProt P20794 (whole entry, looked up): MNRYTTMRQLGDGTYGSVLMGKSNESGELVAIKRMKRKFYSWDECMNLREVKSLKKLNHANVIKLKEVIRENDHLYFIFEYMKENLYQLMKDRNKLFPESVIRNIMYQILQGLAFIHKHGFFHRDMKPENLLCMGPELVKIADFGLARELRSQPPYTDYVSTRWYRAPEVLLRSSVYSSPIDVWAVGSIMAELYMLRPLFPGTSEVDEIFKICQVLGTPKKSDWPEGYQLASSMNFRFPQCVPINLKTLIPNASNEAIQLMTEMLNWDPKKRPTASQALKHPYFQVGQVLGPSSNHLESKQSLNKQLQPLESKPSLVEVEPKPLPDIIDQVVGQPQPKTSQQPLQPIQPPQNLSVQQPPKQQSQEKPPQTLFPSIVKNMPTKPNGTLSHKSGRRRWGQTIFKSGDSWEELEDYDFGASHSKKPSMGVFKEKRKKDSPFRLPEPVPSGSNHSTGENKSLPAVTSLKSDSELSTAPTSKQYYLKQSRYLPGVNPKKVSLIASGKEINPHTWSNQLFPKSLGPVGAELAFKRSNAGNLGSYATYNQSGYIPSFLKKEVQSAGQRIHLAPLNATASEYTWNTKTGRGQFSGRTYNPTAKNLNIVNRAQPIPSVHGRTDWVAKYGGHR
Sequence of UniProt Q15835 (whole entry, looked up): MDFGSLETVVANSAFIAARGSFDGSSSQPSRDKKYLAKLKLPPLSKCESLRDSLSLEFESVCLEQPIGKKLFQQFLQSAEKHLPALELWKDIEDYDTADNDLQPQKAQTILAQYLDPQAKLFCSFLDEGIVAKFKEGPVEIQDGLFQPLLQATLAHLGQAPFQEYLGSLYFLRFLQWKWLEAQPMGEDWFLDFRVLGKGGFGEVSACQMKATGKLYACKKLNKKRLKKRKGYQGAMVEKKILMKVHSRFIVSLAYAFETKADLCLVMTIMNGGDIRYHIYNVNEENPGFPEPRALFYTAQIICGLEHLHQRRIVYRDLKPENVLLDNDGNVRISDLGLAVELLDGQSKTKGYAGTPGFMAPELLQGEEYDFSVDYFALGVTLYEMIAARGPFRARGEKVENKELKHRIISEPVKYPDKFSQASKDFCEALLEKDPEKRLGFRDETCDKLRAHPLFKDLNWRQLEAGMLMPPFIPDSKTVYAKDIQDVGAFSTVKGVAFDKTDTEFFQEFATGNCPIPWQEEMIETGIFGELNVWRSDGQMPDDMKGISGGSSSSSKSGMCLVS

Sample 1
Target: Tyrosine-protein kinase Fes/Fps (FES, Homo sapiens, UniProt P07332)
Sequence of UniProt P07332 (whole entry, looked up): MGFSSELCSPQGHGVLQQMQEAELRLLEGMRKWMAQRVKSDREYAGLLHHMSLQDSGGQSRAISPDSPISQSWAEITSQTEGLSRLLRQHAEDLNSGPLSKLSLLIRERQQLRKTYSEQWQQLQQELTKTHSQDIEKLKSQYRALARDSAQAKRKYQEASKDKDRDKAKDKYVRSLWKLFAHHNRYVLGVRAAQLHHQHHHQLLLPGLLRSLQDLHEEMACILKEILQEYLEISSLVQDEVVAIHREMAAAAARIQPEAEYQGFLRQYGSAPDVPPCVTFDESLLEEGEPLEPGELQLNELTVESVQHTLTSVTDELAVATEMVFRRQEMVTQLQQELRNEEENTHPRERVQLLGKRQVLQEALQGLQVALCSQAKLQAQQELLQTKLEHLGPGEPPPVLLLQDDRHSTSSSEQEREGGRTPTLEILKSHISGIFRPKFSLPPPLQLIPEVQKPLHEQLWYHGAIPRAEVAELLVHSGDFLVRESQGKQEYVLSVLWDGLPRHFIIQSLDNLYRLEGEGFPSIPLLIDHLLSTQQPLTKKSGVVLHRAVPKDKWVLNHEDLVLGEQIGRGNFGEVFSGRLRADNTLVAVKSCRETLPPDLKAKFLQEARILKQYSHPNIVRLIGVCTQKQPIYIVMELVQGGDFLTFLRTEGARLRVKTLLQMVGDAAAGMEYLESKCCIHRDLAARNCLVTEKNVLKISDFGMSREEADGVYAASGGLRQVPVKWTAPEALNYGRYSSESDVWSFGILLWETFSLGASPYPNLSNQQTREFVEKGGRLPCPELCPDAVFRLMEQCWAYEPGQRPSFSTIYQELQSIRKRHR
Observed: enzyme activity
Mode: inhibitor
Concentration: 0.5 µM
Reference: control
Quantity: remaining activity
COc1cc2c(N3CCN(C(=O)Nc4ccc(OC(C)C)cc4)CC3)ncnc2cc1OCCCN1CCCCC1: 105%
O=C(O)/C=C/c1cc(Br)c(Br)c(Br)c1Br: 88.8%
N#CC(c1ccnc(NCCc2cccnc2)n1)c1nc2ccccc2s1 (centres unmarked): 92.8%
CCCCc1c(-c2ccc(O)cc2)[nH]c2nccnc12: 64.5%
O=C1NC(=O)/C(=C/c2ccc3c(c2)OC(F)(F)O3)S1: 98.3%
O=C(c1ccccc1)c1ccc(N2CCOCC2)cc1O: 95.2%
CC(C)n1cnc2c(Nc3cccc(Cl)c3)nc(NCCO)nc21: 66.2%
CC(C)N(CCC(=O)c1ccc2ccccc2c1)Cc1ccccc1: 92.7%
O=C1c2ccccc2-c2nc3nnnn3nc21: 87.5%
O=c1c(-c2ccc(F)cc2)c(-c2ccncc2)[nH]n1-c1ccc(Cl)cc1: 92.3%
NC(=O)c1ccc(-c2nc(-c3ccc4c(c3)OCCO4)c(-c3ccccn3)[nH]2)cc1: 98.4%

Sample 2
Cell line: mouse MPNST tumor cells
Technique: high-content immunofluorescence imaging
Refers to: nuclear SOX9
Concentration: 10 µM
Time: 12 h
Notes: mean of 2 replicates
Reference: DMSO control
Direction: higher = more nuclear SOX9
Quantity: nuclear SOX9 intensity
CNc1nc(-c2ccc3c(N)n[nH]c3c2)cc(N2C[C@@H](C(=O)NC3CCCCC3)CC[C@H]2C)n1: 135 % of DMSO
Cc1c(F)c(N2CCNC(C)C2)cc2c1c(=O)c(C(=O)O)cn2C1CC1 (centres unmarked): 89.9 % of DMSO
CCC[C@@H]1C[C@@H](C(=O)N[C@@H]([C@H]2O[C@H](SC)[C@H](O)[C@@H](O)[C@H]2O)[C@@H](C)O)N(C)C1: 101 % of DMSO
CO[C@H]1CNC[C@@H](OCC2CCC(F)(F)CC2)[C@@H]1Nc1ncc(-c2cncc(C)c2)c2cc(C)c(=O)[nH]c12: 90.5 % of DMSO

Sample 3
Structure (SMILES): O=C(O)c1cc(-c2ccc(C3CCNCC3)cc2)c2ccc(-c3ccc(C(F)(F)F)cc3)cc2c1
Concentration: 1 µM
Quantity: remaining binding
Transient receptor potential cation channel subfamily M member 6 (TRPM6, Homo sapiens, UniProt Q9BX84); cell-free assay, competition with immobilised ligand: 100%
Mast/stem cell growth factor receptor Kit (KIT, Homo sapiens, UniProt P10721, V559D); cell-free assay, competition with immobilised ligand: 100%
NUAK family SNF1-like kinase 1 (NUAK1, Homo sapiens, UniProt O60285); cell-free assay, competition with immobilised ligand: 100%
Insulin receptor (INSR, Homo sapiens, UniProt P06213); cell-free assay, competition with immobilised ligand: 100%
Muscle, skeletal receptor tyrosine-protein kinase (MUSK, Homo sapiens, UniProt O15146); cell-free assay, competition with immobilised ligand: 90%
Serine/threonine-protein kinase MAK (MAK, Homo sapiens, UniProt P20794); cell-free assay, competition with immobilised ligand: 100%
Serine/threonine-protein kinase MRCK gamma (CDC42BPG, Homo sapiens, UniProt Q6DT37); competition binding: 100%
ALK tyrosine kinase receptor (ALK, Homo sapiens, UniProt Q9UM73, L1196M); cell-free assay, competition with immobilised ligand: 100%
Eukaryotic translation initiation factor 2-alpha kinase 1 (EIF2AK1, Homo sapiens, UniProt Q9BQI3); cell-free assay, competition with immobilised ligand: 98%
Mitogen-activated protein kinase kinase kinase 20 (MAP3K20, Homo sapiens, UniProt Q9NYL2); cell-free assay, competition with immobilised ligand: 100%
Fibroblast growth factor receptor 3 (FGFR3, Homo sapiens, UniProt P22607); cell-free assay, competition with immobilised ligand: 100%
Rhodopsin kinase GRK1 (GRK1, Homo sapiens, UniProt Q15835); cell-free assay, competition with immobilised ligand: 100%
Serine/threonine-protein kinase ULK1 (ULK1, Homo sapiens, UniProt O75385); cell-free assay, competition with immobilised ligand: 100%

Further values, each from its own experiment
CC(C)n1cnc(-c2ccc(F)cc2)c1-c1ncc(C(=O)Nc2ccc(N3CCN(C)CC3)cc2)[nH]1
blood fibrinogen increased (IPF patients; 60 mg once daily, adverse event incidence): 0%

A few entries again (sample 1):
N#CC(c1ccnc(NCCc2cccnc2)n1)c1nc2ccccc2s1 (centres unmarked): 92.8%
O=C(O)/C=C/c1cc(Br)c(Br)c(Br)c1Br: 88.8%
O=C(c1ccccc1)c1ccc(N2CCOCC2)cc1O: 95.2%
